Experimental data collected from several papers.
Several values in a cell are separate wells, animals, samples, runs or records.

Compound | cell line | test | system | setting | scale | quantity | result
COc1c(CCC[P+](c2ccccc2)(c2ccccc2)c2ccccc2)cc2c(c1OC)OCO2.[I-] | SN12C | SRB | – | – | – | LC50 | -4.37 log M
CN1CCN(C2(CNC3CCN(c4cccc(-c5cc6cc(F)ccc6[nH]5)c4)CC3)CCC2)CC1 | HOP-92 | – | – | – | – | CC50 | 5.79 µM
COc1c(C)c2c(c(O)c1C/C=C(\C)CCC(=O)O)C(=O)OC2 | MV4-11 | cell proliferation | blood cancer | – | – | IC50 | 0.331 µM
O=C(Nc1ccc2[nH]nc(-c3ccncc3)c2c1)[C@@H]1CCN(CC(=O)N2CCN(c3ccc(-c4ncccn4)cc3)CC2)C1 | HCT116 | IncuCyte | – | concentration not given, 20 (unit not given) | – | PI-positive cells | 6.83 count and 4.83 count and 5.08 count
O=C(O)c1ccc2c(c1)nc(Nc1cccc(Cl)c1)c1ccncc12 | U2OS expressing CK2alpha-HA V66A/I174A | western blot, measured: phospho-EIF2S2 S2 | – | concentration not given, 24 h | – | EIF2S2 S2 phosphorylation | inhibited
Cn1cc2cc(C(F)(F)c3nnc4ccc(-c5cnn(C6CC6)c5)nn34)c(F)cc2n1 | MKN-45 | PI flow cytometry | – | 200 nM, 24 h | – | cells in S phase | 4.09% and 6.79% and 4.31%
O=C1N(Cc2ccccc2Cl)c2ccccc2C12NN=C(c1ccccc1)S2 (stereo not shown) | MDA-MB-468 | gene expression array, measured: MT1F mRNA | – | 10 µM, 12 h | baseline: untreated, down | fold change | 2.5
Nc1ncnc2c1ncn2[C@@H]1O[C@@H]2COP(=O)(O)O[C@H]3[C@@H](O)[C@H](n4cnc5c(=O)[nH]cnc54)O[C@@H]3COP(=O)(O)O[C@H]2[C@H]1O | HFF-1 | RNA sequencing Reactome analysis, measured: Reactome R-HSA-1236974 ER-phagosome pathway | – | added: West Nile virus infection | baseline: West Nile virus infected cells, upregulated pathway | pathway fold enrichment | 4.77
CC(C)N1CCC(NC2CCN(c3cccc(-c4cc5cc(F)ccc5[nH]4)c3)CC2)CC1 | EKVX | – | – | – | – | CC50 | 6.46 µM
C/C=C(/C)C(=O)O[C@H]1C(C)=C2[C@H]([C@@H]1OC(=O)CCCCCCC)[C@@](C)(OC(C)=O)C[C@H](OC(=O)CCC)[C@@]1(O)[C@H]2OC(=O)[C@@]1(C)O | HEK293T | RNA-seq, measured: HSPD1 mRNA | – | 10 µM, 6 h | baseline: vehicle | log2 fold change | -0.0197
Oc1cc(Cl)ccc1Oc1ccc(Cl)cc1Cl | HepG2 | measured: NF-κB nuclear translocation | – | 24 h, distribution mode 1 | – | point of departure | 1.78 µM
COc1ccc(N(C)c2nc(C)nc3ccccc23)cc1 | HCI-10-Luc2 | chemotaxis | – | added: human HGF 50 nM | – | lowest effective concentration | 0.5 nM
Oc1ccc(C(c2ccc(O)cc2)(C(F)(F)F)C(F)(F)F)cc1 | HepG2 spheroids | planimetry | – | 5 µM, 0 to 24 h | baseline: mean area of 72 h spheroids | spheroid area increase | 126%
O=C1CCP(=S)(c2ccccc2)CC1 | HCT-116 | annexin V/PI flow cytometry | – | IC50, 72 h | – | necrotic cells | 1.45%
COc1cc([C@@H]2c3cc4c(cc3C[C@H]3COC(=O)[C@@H]32)OCO4)cc(OC)c1OC | neuroblastoma M2 (+) | western blot | – | IC50 | baseline: untreated | PARP cleavage | increased
COc1cc(CCC[P+](c2ccccc2)(c2ccccc2)c2ccccc2)c(OC)c2c1OCO2.[I-] | SK-MEL-5 | SRB | – | – | – | TGI | -5.6 log M
O=S(=O)(c1ccc(O)cc1)c1ccc(O)cc1 | HepG2 spheroids | flow cytometry | – | concentration not given, 96 h | – | cell cycle distribution | no effect
COc1cccc2c1C(=O)c1c(O)c3c(c(O)c1C2=O)C[C@@](O)(C(=O)CO)C[C@@H]3O[C@H]1C[C@H](N)[C@H](O)[C@H](C)O1 | HL-60 | sulforhodamine B | – | 10 µg/mL, 48 h | negative means cell kill | growth percent | -9.3%
N[C@@H]1C[C@H]1c1ccccc1 | OCI-Ly1 | – | – | 0.1 µM, 120 h | – | viability | 187%
